Measurements of several laboratories.
Numbered parts are unrelated; each lists some results of a single study.

Set 1
Target: Ras GTPase-activating protein-binding protein 1, C-terminal RGG region (G3BP1, Homo sapiens, UniProt Q13283)
UniProt Q13283, sequence (whole entry, looked up): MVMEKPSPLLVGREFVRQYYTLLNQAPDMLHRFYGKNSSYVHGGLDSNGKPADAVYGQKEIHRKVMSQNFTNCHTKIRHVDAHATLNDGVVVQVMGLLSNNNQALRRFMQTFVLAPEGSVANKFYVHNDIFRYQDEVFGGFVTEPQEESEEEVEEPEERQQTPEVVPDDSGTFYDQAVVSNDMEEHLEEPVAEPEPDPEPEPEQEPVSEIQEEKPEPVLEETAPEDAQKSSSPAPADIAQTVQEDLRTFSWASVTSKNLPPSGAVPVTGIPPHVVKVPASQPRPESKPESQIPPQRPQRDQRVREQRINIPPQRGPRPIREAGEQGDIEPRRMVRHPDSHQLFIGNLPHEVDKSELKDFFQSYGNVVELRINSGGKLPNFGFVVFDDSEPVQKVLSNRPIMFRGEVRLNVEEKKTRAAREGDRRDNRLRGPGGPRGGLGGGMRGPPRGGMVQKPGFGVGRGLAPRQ
Method: RNA Bind-n-Seq
Form: RNA
Medium: in vitro
Concentration: 1 µM
Setting: whole 134-nt RNA, ends assumed
With: 150 mM KCl
Reference: input library
Direction: higher = stronger binding
| Sequence | log2 enrichment |
| --- | --- |
| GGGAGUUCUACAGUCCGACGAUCAAGUCCUGUGCUACACAUCGUAUGUACCGAAUCGGGGAGGGGUUUUUGGGGUGGGGAAAGUAUUAUGUUACGCCGUUCGGAUCUGCACUUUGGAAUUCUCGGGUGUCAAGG | 2.01 |
| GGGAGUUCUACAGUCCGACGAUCACCAUGCAGGUGGGCAUCUUUGGGAAGUGGGGCAUGGGGGGGAUAGGGAGGGGGGUAACACUUUGGGAACAGGUGGUCCCAGGUCGUUUCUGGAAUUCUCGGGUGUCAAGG | -0.302 |
| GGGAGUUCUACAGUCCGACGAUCAAGUCCUGUGCUACACAUCGUAUGUACCGAAUCGGAAAGGUUUUUGGAAAAAAAGGAAAGUAUUAUGUUACGCCGUUCGGAUCUGCACUUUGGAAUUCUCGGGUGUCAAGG | -2.41 |
| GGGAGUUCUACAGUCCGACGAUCCCUGUGCUACACAUCGUAUGUACCGAAUCGGGCCCCCCCGGCCCCCCCGGCCCCCCCGGGGAAAGUAUUAUGUUACGCCGUUCGGAUCUGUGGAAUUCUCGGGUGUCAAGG | -1.69 |
| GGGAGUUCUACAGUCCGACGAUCCCUCAAGUCCUGUGCUACACAUCGUAUGUACCGAAUCGGGAGGGGAGGAGGGAAAGUAUUAUGUUACGCCGUUCGGAUCUGCACUUCCAGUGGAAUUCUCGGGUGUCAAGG | 0.229 |
| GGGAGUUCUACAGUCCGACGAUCUCAAGUCCUGUGCUACACAUCGUAUGUACCGAAUCGGGAGGGUUUGGGAAAGGGAAAGUAUUAUGUUACGCCGUUCGGAUCUGCACUUCCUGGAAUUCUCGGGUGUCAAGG | 1.78 |

Set 2
Target: Sal-like protein 4, full length isoform B (SALL4, Homo sapiens, UniProt Q9UJQ4-2, residues 1-616)
Method: universal PBM
Form: double-stranded DNA, one strand shown
Medium: in vitro
Concentration: not given
Setting: 8-mer, flanks averaged, mean of replicates
Direction: higher = stronger binding
Residues (chain): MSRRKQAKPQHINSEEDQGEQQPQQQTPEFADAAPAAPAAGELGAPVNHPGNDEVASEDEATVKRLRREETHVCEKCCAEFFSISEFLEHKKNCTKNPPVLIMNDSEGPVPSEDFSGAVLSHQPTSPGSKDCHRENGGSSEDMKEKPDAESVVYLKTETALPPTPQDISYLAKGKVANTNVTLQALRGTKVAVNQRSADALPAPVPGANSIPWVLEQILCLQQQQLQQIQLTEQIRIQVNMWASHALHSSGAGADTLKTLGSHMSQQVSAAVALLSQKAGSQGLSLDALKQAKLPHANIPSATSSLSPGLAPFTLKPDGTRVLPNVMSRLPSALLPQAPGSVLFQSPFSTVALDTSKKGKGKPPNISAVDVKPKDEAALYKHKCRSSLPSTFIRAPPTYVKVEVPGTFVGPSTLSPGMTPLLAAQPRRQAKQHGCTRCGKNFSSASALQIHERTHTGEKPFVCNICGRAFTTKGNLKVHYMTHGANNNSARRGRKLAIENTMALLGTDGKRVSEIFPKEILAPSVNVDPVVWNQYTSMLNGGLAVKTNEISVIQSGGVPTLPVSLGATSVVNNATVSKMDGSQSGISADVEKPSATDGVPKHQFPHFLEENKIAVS
| Sequence | E-score |
| --- | --- |
| ATTGTACG | 0.17 |
| GTGGCTCA | -0.235 |
| CGGGAGCA | -0.192 |
| AGCGTAGA | -0.161 |
| ATCATTAC | 0.257 |
| ATCTAGCC | -0.129 |
| GTGCCCTA | -0.168 |
| TCGTACGA | 0.0242 |
| CGCCGGCG | -0.289 |

Set 3
Target: Histone acetyltransferase KAT6A, winged helix 2, GST fusion (KAT6A, Homo sapiens, UniProt Q92794, residues 85-181)
Method: protein binding microarray
Form: double-stranded DNA, one strand shown
Medium: in vitro
Concentration: not given
Setting: 8-mer, flanks averaged, mean of 2 arrays, mostly near background
Reference: not given
Direction: higher = stronger binding
Construct (chain): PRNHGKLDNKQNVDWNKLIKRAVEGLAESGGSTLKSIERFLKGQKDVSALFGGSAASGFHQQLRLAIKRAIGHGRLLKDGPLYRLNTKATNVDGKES
| Sequence | E-score |
| --- | --- |
| AGACCGAT | -0.159 |
| CAACGCTG | 0.101 |
| TATGATAA | 0.145 |
| ATGCCAGG | 0.135 |
| ACTAAGAG | 0.0887 |
| AGTTGGAC | -0.134 |
| AGCTTGTA | 0.0656 |
| ATTGTAGG | 0.0313 |
| CGCCCTAC | 0.0256 |
| ATTTTATC | 0.0706 |
| AAAGATGC | -0.0664 |

Single results of other studies
| Substance | target | assay | system | conditions | how to read | quantity | result |
| --- | --- | --- | --- | --- | --- | --- | --- |
| PhoQ, residues 284 288 289 292 302 303 GNNTDL | PhoP, residues 12 14 15 18 19 NQGLL (Escherichia coli, UniProt P23836) | Sort-seq, item: YFP reporter | E. coli | PhoQ-PhoP variant library, with: 10 µM Mg2+ | reference: high Mg2+ state, higher = stronger signaling | fold induction | 1.21 |

For quick reference, copied from above (set 2):
| Sequence | E-score |
| --- | --- |
| GTGGCTCA | -0.235 |
| CGGGAGCA | -0.192 |
| AGCGTAGA | -0.161 |
| ATCATTAC | 0.257 |
